Measured values gathered from unrelated publications.
“And” joins repeats or separate records; there may be more than shown. ± gives the spread as reported.

SMILES	target or system	assay	system	conditions	scale	quantity	result
[Cl-].[Cl-].[Ru+2].c1cnc2c(c1)ccc1cccnc12.c1cnc2c(c1)ccc1cccnc12.c1csc(-c2ccc(-c3nc4c5cccnc5c5ncccc5c4[nH]3)s2)c1	SK-MEL-28			normoxia, together with: visible light 100 J/cm2	relative to: dark EC50 over light EC50	phototherapeutic index	~200
CO[C@@H]1[C@@H](OC(N)=O)[C@@H](O)[C@H](Oc2ccc3c(O)c(NC(=O)c4ccc(O)c(CC=C(C)C)c4)c(=O)oc3c2C)OC1(C)C	HCT-116 parental			75 µM	relative to: untreated	colony survival	79.2%
CN1CCN(C(=O)c2ccc(-c3cc4c(N5CCC[C@H](C(=O)NCc6ccc(OC(F)(F)F)cc6)C5)ncnc4[nH]3)cc2)CC1	NCI-H3122	cell growth or viability, MTT		0.008 µg/mL, 72 h		inhibition	8.5%
O=C(N1CCCC1)n1cc(-c2ccc(-c3ccccc3)cc2)nn1	mouse T cells	N-terminal labelling proteomics, refers to: EFHD2 N-terminal peptides		0.001 µM, 6 h	relative to: DMSO	SILAC ratio	0.97
NC1=C(Cl)C(=O)c2ccccc2C1=O	HuCC-A1	MTT			relative to: IC50 MRC-5 over IC50 HuCC-A1	selectivity index	1.32
CC1(C)CC[C@@]2(CO)C(=C3C=C[C@@H]4[C@@]5(C)CC[C@H](O)[C@@](C)(CO)[C@@H]5CC[C@@]4(C)[C@]3(C)C[C@@H]2O)C1	HepG2, negative control siRNA	Western blot, refers to: PGC-1α		concentration not given, high dose, unit not given, together with: ethanol	relative to: β-actin	protein level	1.25 and 1.11 and 1.63
O=C(C[Se]C(=O)C12CC3CC(CC(C3)C1)C2)Nc1cccc(C(F)(F)F)c1	NCI60 prostate subpanel (PC-3, DU-145)	total growth inhibition, inhibitor		five-dose		mean TGI	7.49 µM
Cc1cc(Cl)cc(-c2ccnc3cc(CN4C(=O)C5C(C4=O)C5(C)C)sc23)c1C[C@@H]1CNCCO1 (some centres unmarked)	CHP-212 parental	Annexin V-PI flow cytometry		0.3 µM, 48 h	relative to: cells	Annexin V-negative PI-positive cells	2.36% and 3.37% and 2.3%
O=C(C[Se]C(=O)c1cc2ccccc2s1)Nc1cccc(C(F)(F)F)c1	NCI60 breast subpanel mean	cell growth				TGI	3.97 µM
COC(=O)c1cc(NC2=NC(=O)C(=Cc3ccc(C)cc3)S2)ccc1OC(C)=O	MCF7	GC-MS, refers to: Dodecanoic acid		1 µM	relative to: DMSO	metabolite level	-0.35 fold change
CSC(=S)N/N=C(\C)c1ccc(Nc2nnc(-c3ccc(Cl)cc3)c3ccccc23)cc1	MCF7	cell growth or viability, MTT		0.625 µM		cell death	87.2%
Cc1cccc(-c2cccc(C)n2)n1.Cc1cccc(-c2cccc(C)n2)n1.F[P-](F)(F)(F)(F)F.F[P-](F)(F)(F)(F)F.[Ru+2].c1cc2ccc3ccc(-c4nc5c6cccnc6c6ncccc6c5[nH]4)c4ccc(c1)c2c34	SK-MEL-28	cell growth or viability, resazurin		dark		EC50	38.9 µM
C[C@@H]1CN(c2cc(=O)n(C)c3ccc(C#N)nc23)[C@@H](C)CN1Cc1ccc(S(=O)(=O)n2cnc(C3CC3)n2)cc1	HEK293A expressing PILS-Nir1	plasma membrane translocation, PILS-Nir1 biosensor		300 nM, 5 min pretreatment, together with: carbachol		PA biosensor translocation	inhibited
Cc1cccc(-c2cccc(C)n2)n1.Cc1cccc(-c2cccc(C)n2)n1.F[P-](F)(F)(F)(F)F.F[P-](F)(F)(F)(F)F.[Ru+2].c1ccc2c(c1)Cc1cc(-c3nc4c5cccnc5c5ncccc5c4[nH]3)ccc1-2	SK-MEL-28			1% O2, together with: blue light 453 nm, 100 J/cm2	relative to: dark over light EC50	phototoxicity index	1
Cn1ncc2cc(-c3cncc(Cl)c3N3CCC4(CCNC4=O)CC3)ccc21	LS174T	gene expression, microarray, refers to: AQP1 mRNA		concentration not given, 24 h	relative to: untreated cells	log2 fold change	2.12
COc1ccccc1-c1ccncc1C(=O)Nc1nnc(OCc2ccc(Cl)cc2)s1	MDA-MB-231			1.5 µM, single replicate		colony count	24 and 33 and 36 and 22

SMILES	target or system	assay	system	conditions	scale	quantity	result
COC1CN([C@H]2CC[C@H]([C@@]3(C)Oc4c(Cl)cc(C(=O)NCc5c(SC)cc(C)[nH]c5=O)c(C)c4O3)CC2)C1		RNA-seq, refers to: DIXDC1	human, whole blood	dose not given, 24 h	relative to: pretreatment baseline	log2 fold change	1.05
C=CC(=O)N1[C@@H](c2ccc3c(c2)OCO3)c2[nH]c3ccccc3c2C[C@H]1C(=O)NC1CC1	rat DRG neurons			0.004572 µM, 48 h, together with: vincristine 40 nM		mean neuron degeneration	87.8%
N#Cc1cccc(/C=C/C(=O)c2ccc(O)cc2)c1	U-87 MG	refers to: HSPA4L		concentration not given	relative to: untreated	fold change	175
CCC(=CCc1c(O)cc2c(c1O)C(=O)CC(c1ccc(O)cc1)O2)CC (centres unmarked)	HeLa	annexin V/PI		12 µM, 48 h		late apoptotic cells	8.81 ± 0.05%
CC(C)c1ccc(N(C)c2ccc3c(c2)OCC[C@H]3CNc2cnccc2C(=O)O)cc1	LOUCY	cell growth or viability, MTS		7 days		IC50	< 0.01 µM
COc1cccc(OC)c1-c1cc(C(=O)NC2(C(=O)O)C3CC4CC(C3)CC2C4)nn1-c1ccc(C(=O)N(C)CCOCCOCCN(C)C(=O)[C@H](CCCCNC(=O)[C@H](CC(C)C)NC(=O)C2OC2C(=O)O)NC(=O)CN2CCN(CC(=O)[O-])CCN(CC(=O)[O-])CCN(CC(=O)[O-])CC2)cc1C(C)C.[177Lu+3] (mixture of isomers)	HT-29	SDS-PAGE autoradiography		concentration not given, 4 h	relative to: radioactive signal	adduct formation	51.7%
O=C(C[Se]C(=O)c1ccccc1Nc1cccc(C(F)(F)F)c1)Nc1cccc(C(F)(F)F)c1	NCI60 prostate subpanel (PC-3, DU-145)	total growth inhibition, inhibitor		five-dose		mean TGI	3.6 µM
CN1CCCNC(=O)c2cccc(c2)C(=O)NCCCN(C)CCCNc2cccc3c2C(=O)c2cccc(c2C3=O)NCCC1	SAS	RNA-seq, refers to: MT-TY mRNA		1 µM, 6 h	relative to: untreated cells	log2 fold change	1.24
CCN(C(=O)c1cc(F)ccc1Oc1nncnc1N1CCC2(C1)CN([C@H](CCCN(C)CCOC)C(C)C)C2)C(C)C	NCI-H460	cell growth or viability		7 days		GI50	> 10 µM
O=C(C[Se]C(=O)c1ccccc1Nc1ccccc1)Nc1cccc(C(F)(F)F)c1	NCI60 prostate subpanel (PC-3, DU-145)	cell growth, inhibitor		five-dose		GI50	1.75 µM
CNS(=O)(=O)Nc1nccc(Cc2c(C)c3ccc(Oc4ncccc4F)cc3oc2=O)c1F	NCI-H1755	cell viability		7 days		IC50	> 1 µM
Cc1ncsc1-c1ccc(C(C)NC(=O)C2CC(O)CN2C(=O)C(NC(=O)CCCCCCCCCCN2CCCC(Nc3ncc(Cl)c(Nc4ccccc4S(=O)(=O)C(C)C)n3)C2)C(C)(C)C)cc1 (centres unmarked)	22Rv1	RNA-seq, refers to: ZC3H4 mRNA		concentration not given	relative to: DMSO	log2 fold change	-2.53
Cc1cccc(-c2cccc(C)n2)n1.Cc1cccc(-c2cccc(C)n2)n1.F[P-](F)(F)(F)(F)F.F[P-](F)(F)(F)(F)F.[Ru+2].c1ccc2c(-c3nc4c5cccnc5c5ncccc5c4[nH]3)c3ccccc3cc2c1	SK-MEL-28	cell viability		normoxia, together with: blue light 453 nm, 100 J/cm2		EC50	0.662 ± 0.007 µM
CC(=O)Oc1ccccc1C(=O)[Se]CC(=O)Nc1cccc(C(F)(F)F)c1	NCI60 breast subpanel mean	cell growth				TGI	12.2 µM
CCCCCCc1cccc(C(O)CC(CO)NC(=O)CCCCCCCCCCNC(C)=O)c1 (centres unmarked)	HeLa	CERT activity, HPLC-MS/MS lipidomics, refers to: ceramide 24		1 µM, 24 h, not cell-number normalised		ceramide level	14800 pmol/sample and 12000 pmol/sample and 16000 pmol/sample
CCN(CC)CC(=O)Nc1cccc(-n2cc(-c3ccc4ccc(-c5cn(-c6cccc(NC(=O)CN(CC)CC)c6)nn5)cc4c3)nn2)c1	RCC4	PCR angiogenesis array, refers to: COL4A3		5 x IC50, 6 h, normoxia	relative to: untreated	fold regulation	-1.22

Repeated from above:
SMILES	target or system	assay	system	conditions	scale	quantity	result
Cc1cccc(-c2cccc(C)n2)n1.Cc1cccc(-c2cccc(C)n2)n1.F[P-](F)(F)(F)(F)F.F[P-](F)(F)(F)(F)F.[Ru+2].c1ccc2c(c1)Cc1cc(-c3nc4c5cccnc5c5ncccc5c4[nH]3)ccc1-2	SK-MEL-28			1% O2, together with: blue light 453 nm, 100 J/cm2	relative to: dark over light EC50	phototoxicity index	1
Cn1ncc2cc(-c3cncc(Cl)c3N3CCC4(CCNC4=O)CC3)ccc21	LS174T	gene expression, microarray, refers to: AQP1 mRNA		concentration not given, 24 h	relative to: untreated cells	log2 fold change	2.12
COc1ccccc1-c1ccncc1C(=O)Nc1nnc(OCc2ccc(Cl)cc2)s1	MDA-MB-231			1.5 µM, single replicate		colony count	24 and 33 and 36 and 22
